{"data": "Measurements of several laboratories", "note": "Each numbered part is a random draw from the data of one study; scales do not carry over between parts.", "sequence of UniProt P28482 (whole entry, looked up)": "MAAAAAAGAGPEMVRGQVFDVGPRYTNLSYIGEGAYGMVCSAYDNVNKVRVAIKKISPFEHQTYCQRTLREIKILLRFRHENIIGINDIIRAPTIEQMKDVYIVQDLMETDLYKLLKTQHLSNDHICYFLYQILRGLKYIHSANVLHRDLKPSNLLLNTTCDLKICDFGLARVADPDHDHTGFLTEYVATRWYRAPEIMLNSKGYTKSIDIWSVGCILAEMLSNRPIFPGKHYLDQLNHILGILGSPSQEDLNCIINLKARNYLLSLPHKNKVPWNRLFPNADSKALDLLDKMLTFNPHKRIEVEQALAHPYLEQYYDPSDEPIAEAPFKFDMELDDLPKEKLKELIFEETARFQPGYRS", "sequence of UniProt Q9H3N8 (whole entry, looked up)": "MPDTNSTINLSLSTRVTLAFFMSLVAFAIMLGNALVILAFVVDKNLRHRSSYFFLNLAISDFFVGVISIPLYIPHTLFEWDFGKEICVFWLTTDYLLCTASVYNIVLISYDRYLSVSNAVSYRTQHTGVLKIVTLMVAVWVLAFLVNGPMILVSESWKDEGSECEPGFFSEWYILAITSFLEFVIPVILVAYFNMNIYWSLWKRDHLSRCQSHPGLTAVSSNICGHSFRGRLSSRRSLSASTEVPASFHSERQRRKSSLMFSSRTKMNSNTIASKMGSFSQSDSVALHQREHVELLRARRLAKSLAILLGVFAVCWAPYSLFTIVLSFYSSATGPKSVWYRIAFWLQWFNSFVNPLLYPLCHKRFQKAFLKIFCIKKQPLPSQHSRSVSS"}
{"data": "Block 1", "SMILES": "CC(C)n1cnc(-c2ccc(F)cc2)c1-c1ncc(C(=O)Nc2ccc(N3CCN(C)CC3)cc2)[nH]1", "technique": "Phase 2a trial", "host": "idiopathic pulmonary fibrosis patients"}
{"assay": "measured: infections and infestations", "conditions": "dose not given, grade 5 maximum intensity, all arms", "patients with adverse events": "0%"}
{"assay": "measured: back pain", "conditions": "60 mg once daily, grade 1 maximum intensity", "patients with adverse events": "0%"}
{"assay": "measured: urinary tract infection", "conditions": "30 mg once daily, grade 1 maximum intensity", "patients with adverse events": "0%"}
{"assay": "measured: vision blurred", "conditions": "30 mg once daily, grade 4 maximum intensity", "patients with adverse events": "0%"}
{"assay": "measured: respiratory tract infection", "conditions": "30 mg once daily, grade 5 maximum intensity", "patients with adverse events": "0%"}
{"assay": "measured: blood alkaline phosphatase increased", "conditions": "30 mg once daily, grade 4 maximum intensity", "patients with adverse events": "0%"}
{"assay": "measured: chest discomfort", "conditions": "dose not given, grade 4 maximum intensity, all arms", "patients with adverse events": "0%"}
{"assay": "measured: gamma-glutamyltransferase increased", "conditions": "30 mg once daily, grade 3 maximum intensity", "patients with adverse events": "0%"}
{"assay": "measured: urinary tract infection", "conditions": "dose not given, grade 3 maximum intensity, all arms", "patients with adverse events": "0%"}
{"assay": "measured: reticulocyte count increased", "conditions": "dose not given, grade 2 maximum intensity, all arms", "patients with adverse events": "0%"}
{"data": "Block 2", "host": "human", "matrix": "microsomes or S9", "tested at": "2 µM", "time": "0.5 h"}
{"Structure (SMILES)": "CCOC(OCC)c1cc2c(N)nc3ccccc3c2o1", "remaining compound [%]": 61.9}
{"Structure (SMILES)": "CC(C)c1ccccc1NC(=O)N1CCC[C@H]2C(=O)NC[C@H]21", "remaining compound [%]": 76.1}
{"Structure (SMILES)": "CCc1cc2c3c([nH]c2cc1S(=O)(=O)N1CCN(C)CC1)CC(C)(C)CC3=O", "remaining compound [%]": 83.6}
{"Structure (SMILES)": "Cc1nn(C)c2nc(NCC[C@@H]3CCCN4CCCC[C@H]34)sc12", "remaining compound [%]": 69.7}
{"Structure (SMILES)": "CS(=O)(=O)N[C@H]1CC[C@H](Nc2ncnc3[nH]cc(-c4cc(Cl)c(O)c(Cl)c4)c23)CC1", "remaining compound [%]": "> 100"}
{"Structure (SMILES)": "CCN1C(=O)CCC2(C(=O)NCCN(C)C3CCCCC3)CCCC=C12 (stereo not shown)", "remaining compound [%]": 67.5}
{"Structure (SMILES)": "Cc1ccc(C(=O)C2=CN(c3ccc(N(C)C)cc3)c3ccccc3S2(=O)=O)c(C)c1", "remaining compound [%]": 4.99}
{"Structure (SMILES)": "Cc1cc(C)c(S(=O)(=O)N(C)C2(C)CCS(=O)(=O)C2)c(C)c1 (stereo not shown)", "remaining compound [%]": 1.4}
{"Structure (SMILES)": "CCOC(=O)Nc1cc(-n2c(=O)nc(N(C)C)n(C)c2=O)c(F)cc1Cl", "remaining compound [%]": "> 99.9"}
{"Structure (SMILES)": "c1ccc(C(CCNc2ncnc3[nH]cnc23)c2ccccc2)cc1", "remaining compound [%]": 45.3}
{"Structure (SMILES)": "c1ccc(-c2ccc3ccnc(N4CCCCC4)c3c2)cc1", "remaining compound [%]": 12.4}
{"Structure (SMILES)": "c1ccc(-c2cc(-c3cc4ccccc4o3)nc3nnnn23)cc1", "remaining compound [%]": 64.9}
{"Structure (SMILES)": "CCOC(=O)Cc1c(C)[nH]c2c(-c3ccccc3)cnn2c1=O", "remaining compound [%]": 30}
{"Structure (SMILES)": "Cc1n[nH]c(C)c1CCC(=O)NCc1c(F)cccc1F", "remaining compound [%]": 71.8}
{"Structure (SMILES)": "O=C(NC1Cc2ccccc2C1)NC1CCCn2ncnc21 (stereo not shown)", "remaining compound [%]": 87.1}
{"Structure (SMILES)": "CC(Oc1cc(-n2nc3c(c2Cl)CCCC3)c(F)cc1Cl)C(C)(C)O (stereo not shown)", "remaining compound [%]": 47.4}
{"data": "Block 3", "target": "Serine/threonine-protein kinase BRSK2 (BRSK2, Homo sapiens, UniProt Q8IWQ3)", "effect on": "enzyme activity", "action": "inhibitor", "tested at": "0.5 µM", "reference": "control", "sequence of UniProt Q8IWQ3 (whole entry, looked up)": "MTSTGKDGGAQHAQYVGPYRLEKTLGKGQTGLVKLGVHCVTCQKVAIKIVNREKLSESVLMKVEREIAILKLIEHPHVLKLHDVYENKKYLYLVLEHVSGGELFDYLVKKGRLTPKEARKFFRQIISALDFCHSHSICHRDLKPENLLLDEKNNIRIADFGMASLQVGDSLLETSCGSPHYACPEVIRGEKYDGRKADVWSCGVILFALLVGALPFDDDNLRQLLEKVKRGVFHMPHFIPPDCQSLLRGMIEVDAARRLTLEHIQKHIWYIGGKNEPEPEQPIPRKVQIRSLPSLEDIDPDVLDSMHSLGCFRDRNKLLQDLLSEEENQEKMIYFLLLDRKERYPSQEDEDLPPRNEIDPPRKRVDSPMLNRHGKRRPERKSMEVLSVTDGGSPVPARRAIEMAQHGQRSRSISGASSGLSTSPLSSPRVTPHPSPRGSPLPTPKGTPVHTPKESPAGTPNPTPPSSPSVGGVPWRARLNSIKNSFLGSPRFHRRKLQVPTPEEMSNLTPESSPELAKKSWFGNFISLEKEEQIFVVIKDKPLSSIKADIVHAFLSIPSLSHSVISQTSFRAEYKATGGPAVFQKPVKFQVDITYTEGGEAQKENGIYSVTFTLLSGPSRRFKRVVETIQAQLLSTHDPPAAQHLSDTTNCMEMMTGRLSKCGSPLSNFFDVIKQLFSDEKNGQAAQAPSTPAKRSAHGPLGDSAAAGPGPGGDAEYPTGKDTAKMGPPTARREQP"}
{"Compound": "N#Cc1cnc2cnc(NCc3cccnc3)cc2c1Nc1ccc(F)c(Cl)c1", "remaining activity [%]": 100}
{"Compound": "COc1ccc2c(c1)c(C1=C(c3c[nH]c4ccccc34)C(=O)NC1=O)cn2CCCN(C)C", "remaining activity [%]": 61.3}
{"Compound": "Cc1cc(Nc2cc(N3CCN(C)CC3)nc(Sc3ccc(NC(=O)C4CC4)cc3)n2)[nH]n1", "remaining activity [%]": 89.6}
{"Compound": "CCCCc1c(-c2ccc(OC)cc2)[nH]c2nccnc12", "remaining activity [%]": 90.8}
{"Compound": "O=C1Nc2ccc(Br)cc2/C1=C/c1cc2c([nH]1)CCCC2", "remaining activity [%]": 93.8}
{"Compound": "CN1CCN(c2ccc3nc(-c4c(N)c5c(F)cccc5[nH]c4=O)[nH]c3c2)CC1", "remaining activity [%]": 59.4}
{"Compound": "c1ccc2c(-c3ccncc3)c[nH]c2c1", "remaining activity [%]": 98.6}
{"Compound": "O=C1Nc2ccccc2/C1=C\\c1c(Cl)[nH]c2ccccc12", "remaining activity [%]": 96.2}
{"Compound": "O=C(c1cc2cc(O)ccc2[nH]1)c1cc2cc(O)ccc2[nH]1", "remaining activity [%]": 44.3}
{"data": "Other studies, line by line"}
{"SMILES": "C[C@@H](NC(=O)Nc1cc2[nH]ncc2c(CO)n1)c1ccccc1", "target": "Mitogen-activated protein kinase 1 (MAPK1, Homo sapiens, UniProt P28482)", "assay": "target engagement in cells, BRET", "endpoint": "EC50", "value": "95 nM"}
{"SMILES": "O=C(c1ccc(F)cc1)N1CC(COc2ccc(Br)cc2)(C(=O)O)C1", "target": "Histamine H4 receptor (HRH4, Homo sapiens, UniProt Q9H3N8)", "assay": "binding, radioligand binding", "endpoint": "Ki", "value": "> 10000 nM"}
